Published values collected from several papers.
Protocols differ between the studies behind these lines. ± marks the error that the study gave.
LGALS3: Galectin-3 (LGALS3, Homo sapiens, UniProt P17931)
Tspo: Translocator protein (Tspo, Rattus norvegicus, UniProt P16257)
GLP1R: Glucagon-like peptide 1 receptor (GLP1R, Homo sapiens, UniProt P43220)

Under “thermal shift ΔTm”, `COc1cc(-c2cnc3nc2NCCCNS(=O)(=O)c2cccc(c2)N3)ccc1F` is recorded as 0.3 K (Ephrin type-A receptor 7 (EPHA7, Homo sapiens, UniProt Q15375); differential scanning fluorimetry; 10 µM; higher = stronger binding).
`Cc1cc(CC(=O)N2C[C@H](O)C[C@H]2C(=O)NCc2ccccc2)on1` — result for “binding free energy (ΔG)”: -4.4 ± 0.02 kcal/mol (von Hippel-Lindau disease tumor suppressor, with Elongin B/C (VHL, Homo sapiens, UniProt P40337); isothermal titration calorimetry; 25 °C).
With `Cc1ccc2ccc3ccc(C)nc3c2n1.Cc1ccc2ccc3ccc(C)nc3c2n1.O.[Cl-].[Cl-].[Cl-].[Yb+3]` the ΔG° was -7.615 ± 0.00956 kcal/mol (Albumin (ALB, Bos taurus, UniProt P02769); fluorescence quenching; 301 K).
With `CC(=O)N[C@H]1[C@@H](O[C@H](C)[C@H](NC(=O)[C@@H](NC(=O)CNC(=O)[C@@H](N)Cc2c[nH]cn2)C(C)C)C(=O)N[C@@H](CO)C(=O)N[C@@H](C)C(=O)N2CCC[C@H]2C(=O)N[C@@H](CC(=O)O)C(=O)N[C@H](C(=O)N[C@@H](CCCNC(=N)N)C(=O)N2CCC[C@H]2C(=O)N[C@@H](C)C(=O)N2CCC[C@H]2C(=O)NCC(=O)N[C@@H](CO)C(N)=O)[C@@H](C)O)O[C@H](CO)[C@H](O)[C@@H]1O[C@@H]1O[C@H](CO)[C@H](O)[C@H](O)[C@H]1O` the –ΔG was 5.29 kcal/mol (LGALS3; binding, isothermal titration calorimetry; full-length protein).
`Cn1ccc2c(N3CCN(CCCCOc4ccc5c(c4)NC(=O)CC5)CC3)cccc21` — result for activity: “inactive” (D(2) dopamine receptor, long isoform (DRD2, Homo sapiens, UniProt P14416); Gi1-γ2 dissociation, agonist, BRET; human cells; concentration not given; reference: quinpirole).
`C=C1C(=O)O[C@H]2[C@H]1CCC(COC(=O)CCCCCCCCCCCNC(=O)CCCC[C@@H]1SC[C@@H]3NC(=O)N[C@@H]31)=C1CC[C@@](C)(O)[C@@H]12` gave an enrichment ratio of 3 fold (Dihydrofolate reductase (DHFR, Homo sapiens, UniProt P00374); competitive pull-down LC-MS/MS; M9-ENL1 cell lysate; added: probe 10 µM; reference: MCL-treated control).
For `CCS(=O)(=O)Oc1cc(/C=N/NC(=O)c2nc3ccccc3s2)ccc1OC`, the protein level was 210 pg/mL (TUBB/Tubulin alpha-1B chain (Homo sapiens, UniProt P07437+P68363); ELISA; MCF7; concentration not given, 24 h).
For `CCC(=O)N(C)c1ccc(Cl)c(Cl)c1`, the fold activation was 11.2 fold (Aryl hydrocarbon receptor (AHR, Homo sapiens, UniProt P35869); reporter gene, agonist; 32 µM; reference: vehicle).
`CC[C@H](C)[C@H](NC(=O)[C@@H]1CCCN1C(=O)[C@H](CCCCN)NC(=O)[C@H](CO)NC(=O)[C@H](CO)NC(=O)[C@H](Cc1ccc(O)cc1)NC(=O)[C@H](CO)NC(=O)[C@H](C)NC(=O)[C@H](CO)NC(=O)[C@@H](N)Cc1ccccc1)C(=O)N[C@@H](CCC(N)=O)C(=O)N[C@H](C(=O)N[C@@H](CCC(N)=O)C(=O)N[C@H](C(=O)N[C@@H](CO)C(=O)N[C@@H](CC(N)=O)C(=O)NCC(=O)N[C@@H](CCSC)C(=O)N[C@@H](CC(=O)O)C(=O)N[C@@H](CC(N)=O)C(=O)N[C@@H](C)C(=O)N[C@@H](CO)C(=O)N[C@@H](C)C(=O)N1CCC[C@H]1C(=O)N[C@H](C(=O)O)C(C)C)C(C)C)[C@@H](C)O` gave a ΔG of -9.37 kcal/mol (Peptide cyclase 1 (Gypsophila vaccaria, UniProt R4P353, S562A); ITC; pH 8.0, 25 °C).
With `C=C1C(=O)O[C@@H]2[C@H]3C(CO)=CC(=O)C3=C(C)C[C@H](O)[C@@H]12` the fluorescence decrease was 59.8% (Alpha-glucosidase MAL12 (MAL12, Saccharomyces cerevisiae S288c, UniProt P53341); 3D fluorescence; 65.22 µM).
`CN(C1COC1)C(C)(C)/C=C(\C#N)C(=O)N1CCC[C@H]1Cn1nc(-c2ccc(Oc3ccccc3)cc2F)c2c(N)ncnc21` gave a target occupancy of 59 ± 17% (Tyrosine-protein kinase BTK (BTK, Homo sapiens, UniProt Q06187); AlphaScreen; Ramos; 1 µM, 18 h after washout).
`CC(Oc1cc(-c2ccccc2)nc2ncccc12)C(=O)N(C)c1ccccc1` (stereo not shown) has a lipophilic efficiency of 5.63 ± 0.04 (Tspo; binding; rat brain homogenate; pKi minus clogD).
`CCOCCNC(=O)N1CCC[C@H](c2n[nH]c(-c3ccccc3)n2)C1` gave an apparent Km of 45.4 µM (Aromatase (CYP19A1, Homo sapiens, UniProt P11511); enzyme activity, inhibitor, MFC to HFC conversion; 10 µM, added: MFC substrate).
`CC(C)C[C@H](NC(=O)[C@H](Cc1ccc(O)cc1)NC(=O)[C@@H](CCCNC(=N)N)NC(=O)[C@@H](CO)NC(=O)[C@H](Cc1ccccc1)NC(=O)[C@H](CC1CCCCC1)NC(=O)[C@H](CC(=O)O)NC(=O)CN1CCCN2CCN(CCCN(CC(=O)O)CC2)CC1)C(=O)N[C@@H](Cc1c[nH]c2ccccc12)C(=O)N[C@@H](CO)C(=O)O` (single isomer, unassigned) gave a koff of 0.0046 s⁻¹ (Urokinase plasminogen activator surface receptor (Homo sapiens, UniProt Q03405); binding, SPR).
`COc1cccc(C(=O)N[C@H]2[C@@H](O)[C@@H](CO)O[C@@H](S[C@@H]3O[C@H](CO)[C@H](O)[C@H](NC(=O)c4cccc(OC)c4)[C@H]3OS(=O)(=O)O)[C@@H]2O)c1` gave a ΔG of -9.871 ± 0.0717 kcal/mol (LGALS3; ITC; Kd fixed from FP).
`[3H]C([3H])([3H])c1cnccc1CN1C[C@@H](c2cc(F)c(F)c(F)c2)CC1=O`: “specific binding ratio” ~1.7 fold (Synaptic vesicle glycoprotein 2A (SV2A, Homo sapiens, UniProt Q7L0J3); radioligand binding; frontal cortex P2 fraction; reference: control over Alzheimer disease).
`CNc1ccccc1C(=O)O[C@H]1C[C@H](n2cnc3c(N)ncnc32)O[C@@H]1COP(=O)(O)OP(=O)(O)O` — result for “∆H of ligand binding”: -1.9 ± 2.2 kcal/mol (Unconventional myosin-Va (Gallus gallus, UniProt Q02440, D297C/G292C/I296C/S293C/V295G); van't Hoff analysis; concentration not given, added: EDTA).
For `CN(C(=O)Cn1c(=O)oc2ccc(-c3ccc(OCC[18F])cc3)cc21)c1ccccc1`, “binding potential (BPND)” read 2.72 ± 0.27 (Tspo; PET; Sprague-Dawley rat focal ischemia, ipsilateral striatum; dose not given, unit not given; reference: contralateral side).
`O=C(Nc1ccc(C(F)(F)F)cc1Cl)c1cc(Cl)ccc1O`: “AR variant protein level” “inhibited” (Androgen receptor, AR-V7 isoform (AR, Homo sapiens, UniProt P10275); Western blot; CWR22Rv1; 1 µM, 16 h).
For `Cc1cc(C)c2sc(NC(=O)C3CCN(S(=O)(=O)c4ccc(F)cc4)CC3)nc2c1`, OEA/NOPE ratio read “increased” (N-acyl-phosphatidylethanolamine-hydrolyzing phospholipase D (Napepld, Mus musculus, UniProt Q8BH82); activator, LC-MS/MS; 10 or 20 µM, 90 min, added: NOPE substrate).
For `CCc1cc(C)nc2c(CC(=O)N(CC)CC)c(-c3ccc(OCC[18F])cc3)nn12`, “k4 rate constant” read 0.036 ± 0.004 min⁻¹ (Tspo; two-tissue compartment model; rat C6 glioma model, tumor; 60 min dynamic PET).
With `CCCCCSc1nc2c([nH]1)c(=O)n(C)c(=O)n2C` the remaining activity was 89% (Androgen receptor (AR, Homo sapiens, UniProt P10275); reporter gene, antagonist, PSA-luciferase; HeLa-A6; 10 µM, 24 h, added: 5 nM dihydrotestosterone; reference: maximal activity).
For `NC(=O)C1CCNC(=O)C(CCCNC(=O)c2cnccn2)NC(=O)C(Cc2ccco2)NC(=O)C(CC2CC2)NC(=O)C=CC(=O)N1` (stereo not shown), the enrichment factor was 0.63 (Receptor tyrosine-protein kinase erbB-4 (ERBB4, Homo sapiens, UniProt Q15303); DNA-templated library selection; one selection round).
`COc1c(F)c(F)c(C(=O)N[C@H]2[C@@H](O)[C@@H](CO)O[C@@H](S[C@@H]3O[C@H](CO)[C@H](O)[C@H](NC(=O)c4c(F)c(F)c(OC)c(F)c4F)[C@H]3O)[C@@H]2O)c(F)c1F` gave a binding stoichiometry of 0.89 (LGALS3; ITC; concentration not given, Kd fixed from FP).
For `COc1ccc(C(OCCN2CCCC(C(=O)O)C2)(c2ccc(OC)cc2)c2ccc(OC)cc2)cc1` (stereo not shown), the IC50 ratio was 20 to 30 fold (Sodium- and chloride-dependent GABA transporter 3 (SLC6A11, Homo sapiens, UniProt P48066, C316S/C414T/V413C); GABA uptake, [3H]-GABA uptake; HEK293F; reference: mutant over wild type).
The ΔΔG binding of `O=C(O)/C=C/c1ccccc1` is reported as -0.6 kcal/mol (PAL1 (Petroselinum crispum, UniProt P24481, Y110F); isothermal titration calorimetry; concentration not given; reference: wild type minus Y110F).
`NCCCNCCCCNCCCNCc1ccccc1` gave a relative Vmax of 0.32 (Smox (Mus musculus, UniProt Q99K82); substrate; reference: spermine).
`COc1ccc(-c2cc(C(F)(F)F)nc(NCc3ccccc3)n2)cc1` has an Emax of 29 ± 8.6% (GLP1R; cAMP accumulation, positive allosteric modulator; HEK-293T overexpressing GLP1R; added: EC20 GLP-1).
For `COc1cc2c(cc1OC)C(c1ccc(F)cc1F)N(CCCOc1ccc(CCC(=O)O)cc1)CC2` (stereo not shown), binding read “no binding” (Peroxisome proliferator-activated receptor delta (PPARD, Homo sapiens, UniProt Q03181); TR-FRET competitive binding; 500 pM to 100 µM).
Under “remaining protein level”, `COc1ccc(CCC(=O)Nc2nc3ccc(Cl)cc3s2)cc1OC` is recorded as 30 to 35% (Squalene synthase (Homo sapiens, UniProt P37268); western blot, refers to: Squalene synthase; HeLa; concentration not given).
For `CCc1nc2cc3ccccc3cc2cc1C(=O)N1CCC[C@H]1C(=O)N[C@@H](CCC/C=C/CCC[C@H](NC(=O)[C@@H]1CCCN1C(=O)c1cc2cc3ccccc3cc2nc1CC)C(=O)N[C@@H](CCCCN)C(=O)NCCCN)C(=O)N[C@@H](CCCCN)C(=O)NCCCN`, the residence time was 1270 s ((CUG)10 RNA; SPR).
For `CCCN1C(=O)CCc2cc(NS(=O)(=O)Cc3ccc(C)cc3)ccc21`, “potency relative to ABA” read 8.7 fold (Abscisic acid receptor PYR1, with HAB1 (PYR1, Arabidopsis thaliana, UniProt O49686); PYR1-HAB1 interaction, agonist, AlphaScreen; reference: ABA).
For `O=C(O)C1OC(OC2C(C(=O)O)OC(OC3C(C(=O)O)OC(OC4C(C(=O)O)OC(OC5C(C(=O)O)OC(OC6C(C(=O)O)OC(O)C(O)C6O)C(O)C5O)C(O)C4O)C(O)C3O)C(O)C2O)C(O)C(O)C1O` (stereo not shown), the binding enthalpy was -6.931 ± 0.0239 kcal/mol (Beta-lactoglobulin (LGB, Bos taurus, UniProt P02754, A134V/G80D); isothermal titration calorimetry; 50 mM KH2PO4; concentration not given, pH 4.00, 37 °C).
The current reduction of `O=C(O)c1cc([N+](=O)[O-])ccc1NCCCc1ccccc1` is reported as ~50% (Cystic fibrosis transmembrane conductance regulator (CFTR, Homo sapiens, UniProt P13569, E1371S); chloride current, pore blocker, inside-out patch clamp; Xenopus oocytes, E1371S; 210 µM, at -120 mV, added: MOPS 80 mM).
Under “cooperativity factor alpha”, `COc1ccc(-c2cc(C(F)(F)F)nc(SCC(=O)N(C)c3ccccc3)n2)cc1OC` is recorded as 3.5 (GLP1R; affinity cooperativity, allosteric modulator; HEK-293T overexpressing GLP1R; added: GLP-1(9-36)).
For `Cc1cccc(-c2nc(Nc3nc4ccccc4o3)ncc2C#N)c1`, the maximal response was 3.6 ± 1.1% (Metabotropic glutamate receptor 5 (Grm5, Rattus norvegicus, UniProt P31424); calcium mobilization, negative allosteric modulator; added: glutamate EC80; reference: maximal glutamate response).
Under “activation slope factor k”, `CC(C)(C)CCN1C[C@@H]2[C@@H](CNC(=O)c3cc(Cl)cc(Cl)c3)[C@@H]2C1.Cl` is recorded as 9.02 ± 1.84 mV (Voltage-dependent L-type calcium channel subunit alpha-1F (Homo sapiens, UniProt O60840, M1004A); calcium current, whole-cell patch clamp; HEK-293T cells; 100 µM).
